Experimental data pooled from the literature.
Protocols differ between the studies behind these lines. Numbers after ± are the reported error.

Structure (SMILES)	test	test system	conditions	how to read	measurement	result
[O-][S+]1CCc2nc(N3CCC(c4ncc(Cl)cn4)CC3)nc(NC3(CO)CCC3)c21 (stereo not shown)	phase I trial, measured: nervous system disorders	healthy male volunteers	dose not given, multiple rising dose, all cohorts		subjects with adverse events	31.3%
[2H]C([2H])([18F])[C@]([2H])(N)C(=O)O	PET	athymic nude mice, U-87 MG	dose not given, 60 min post-injection	baseline: tumour over muscle	tumour-to-muscle ratio	1.09 ± 0.11
Oc1c(Cl)cc2c(c1Cl)Oc1cc(Cl)c(Cl)cc1O2	ultrafiltration	cow milk whey	500 nM nominal in whole milk		dose fraction in permeate	18.3%
CCC[C@@](N)(CO)CCc1ccc(OCCCCCC(C)C)cc1		dog, male hounds, plasma	oral capsule, 5 mg/kg, geometric mean		AUC(0-72 h)	7.28 µM·h
O=C(Nc1ccccc1)C1CCN(C(=O)Oc2cccnc2)CC1	Bond-Lader VAS	healthy women	100 mg	baseline: pre-dose baseline, direction not given	change in Calm-excited score	-19
COc1ccc([C@@H](O)c2cc(-c3ncnc4cc(N5CCOCC5)ccc34)c(F)cc2Cl)nn1		patients, advanced solid tumours	oral, 300 mg twice daily, treatment-emergent, with: avelumab		abdominal pain incidence	4%
CN[C@@H](C)C(=O)N[C@H]1CN(S(=O)(=O)c2cccc(S(=O)(=O)N3CC[C@H]4CC[C@@H](C(=O)NC(c5ccccc5)c5ccccc5)N4C(=O)[C@@H](NC(=O)[C@H](C)NC)C3)c2)CC[C@H]2CC[C@@H](C(=O)NC(c3ccccc3)c3ccccc3)N2C1=O		patients with advanced solid tumours	12 mg, phase I monotherapy		treatment-related ALT elevation incidence	0%
CC[C@H](C)[C@H](NC(=O)[C@H](Cc1ccccc1)NC(=O)[C@H](CCC(=O)O)NC(=O)[C@H](CCCNC(=N)N)NC(=O)[C@H](C)NC(=O)[C@H](C)NC(=O)[C@H](CCC(N)=O)NC(=O)[C@H](CCC(=O)O)NC(=O)[C@H](CCC(=O)O)NC(=O)[C@H](CC(C)C)NC(=O)[C@H](Cc1ccc(O)cc1)NC(=O)[C@H](CO)NC(=O)[C@H](CO)NC(=O)[C@@H](NC(=O)[C@H](CC(=O)O)NC(=O)[C@H](CO)NC(=O)[C@@H](NC(=O)[C@H](Cc1ccccc1)NC(=O)[C@@H](NC(=O)CNC(=O)[C@H](CCC(=O)O)NC(=O)[C@H](C)NC(=O)CCc1cnc[nH]1)[C@@H](C)O)[C@@H](C)O)C(C)C)C(=O)N[C@@H](C)C(=O)N[C@@H](Cc1c[nH]c2ccccc12)C(=O)N[C@@H](CC(C)C)C(=O)N[C@H](C(=O)N[C@@H](CCCNC(=N)N)C(=O)NCC(=O)N[C@@H](CCCNC(=N)N)C(=O)N[C@@H](CCCCNC(=O)COCCOCCNC(=O)COCCOCCNC(=O)CC[C@H](NC(=O)CCCCCCCCCCCCCCCCC(=O)O)C(=O)O)C(=O)NCC(=O)NCC(=O)N[C@@H](CO)C(=O)N[C@@H](CCCCNC(=O)[C@H](CCCCNc1c(NCCCCCN(O)C(=O)CCC(=O)NCCCCCN(O)C(=O)CCC(=O)NCCCCCN(O)C(C)=O)c(=O)c1=O)Nc1c(NCCCCCN(O)C(=O)CCC(=O)NCCCCCN(O)C(=O)CCC(=O)NCCCCCN(O)C(C)=O)c(=O)c1=O)C(=O)O)C(C)C [zirconium-89 labelled]	ex vivo gamma counting	male Sprague-Dawley rat, stomach-duodenum	intravenous, 1 nmol, 24 h		tissue uptake	0.401 %ID/g
C=CC[N+]1([C@H]2C[C@H]3[C@@H]4CC[C@H]5C[C@H](O)[C@@H](N6CCOCC6)C[C@]5(C)[C@H]4CC[C@]3(C)[C@H]2OC(C)=O)CCCC1		Sprague Dawley rat, plasma	intravenous, dose not given, with: sugammadex 5 mg/kg IV		Cmax	285 ng/mL
Cc1cc(C)c(CNC(=O)c2cc(Cl)c3c(c2C)O[C@@](C)([C@H]2CC[C@H](N(C)C)CC2)O3)c(=O)[nH]1		relapsed/refractory NHL patients	dose not given, trial, safety set, treatment-related TEAE grade 5		incidence of tumour-associated fever	0%
COc1ccc(CCC2CCCC(CCc3ccc(OC)cc3)N2C[C@@H](O)CO)cc1.Cl (stereo in doubt)		rabbit Purkinje fibres	0.03 µM, cycle length 1 s	baseline: baseline	Vmax change	-1.3 ± 0.9%
NC(=O)[C@H]1CCN(c2ncnc(N)c2F)C[C@@H]1N1CCC[C@@H](Nc2cc(Cl)cc(C(F)(F)F)c2)C1=O		B-cell malignancy patients	oral, 164 mg twice daily, dose		grade ≥3 bilirubin increase	25%
C=CC(=O)N1CCC(c2ccc(C(N)=O)c(-c3ccc(Oc4ccccc4)cc3)n2)CC1	serious adverse event Death	patients with relapsed/refractory MCL	oral		incidence	0.9%
CN1CC[C@@H](c2c(O)cc(O)c3c(=O)cc(-c4ccc(C(F)(F)F)cc4Cl)oc23)[C@@H]1CO	measured: Lymphopenia	relapsed B-cell malignancies	oral, 150 mg, grade 3-4, intermittent dosing		patients with adverse event	0%
CCCCCCCC(=O)N[C@@H](CCCCN)C(=O)N[C@@H](CCCCN)C(=O)N[C@@H](C)C(=O)N[C@@H](CC(C)C)C(=O)N[C@@H](CCCCN)C(=O)N[C@@H](CC(C)C)C(=O)N[C@@H](C)C(=O)N[C@@H](CCCCN)C(=O)N[C@@H](CCCCN)C(=O)N1CCC[C@H]1C(=O)N[C@@H](CC(C)C)C(=O)N[C@@H](CCCCN)C(=O)N[C@@H](CC(C)C)C(=O)N[C@@H](CC(C)C)C(=O)N[C@@H](CCCCN)C(N)=O		mouse, whole blood	intravenous bolus, 1 mg/kg		AUC(0-last)	75 ± 15 ng·h/mL
C[C@]1(CO)Cc2ncn(-c3ccc(C#N)c(Cl)c3)c2C(=O)O1		human, Chinese, plasma	60 mg single dose, median		tmax	1 h
CC(C)CC(=O)OC[C@H]1O[C@@](C#N)(c2ccc3c(N)ncnn23)[C@H](O)[C@@H]1O		beagle dog both sexes	oral, cardiovascular safety pharmacology		NOAEL	100 mg/kg/day
CO[C@H]1C[C@@H]2CC[C@@H](C)[C@@](O)(O2)C(=O)C(=O)N2CCCC[C@H]2C(=O)O[C@H]([C@H](C)C[C@@H]2CC[C@@H](OC(=O)NCCOCCOCCOCCOCCOCCOCCOCCOCCC(=O)N3CCc4cc(Cn5nc(-c6ccc7oc(N)nc7c6)c6c(N)ncnc65)ccc4C3)[C@H](OC)C2)C[C@@H](O)[C@H](C)/C=C(\C)[C@@H](O)[C@@H](OC)C(=O)[C@H](C)C[C@H](C)/C=C/C=C/C=C/1C	dose-escalation trial	patients with advanced solid tumours	intravenous, all doses weekly, grade ≥3		abdominal pain TEAE incidence	3.5%
Clc1ccc(-c2cc(Cl)c(Cl)cc2Cl)cc1Cl		whole cow milk	200 nM nominal		dose fraction in skim milk	5.5%
COc1cc2c(Oc3ccc4[nH]c(C)cc4c3F)ccnc2cc1OCC1(N)CC1		paediatric recurrent refractory sarcoma	8 mg		grade 1 or 2 Rash	0%
COc1ncnn2ccc(-c3cnc4nc(C)n(Cc5nnc([C@@H](C)F)o5)c4c3)c12		human	oral, dose not given, grade 4		patients with fatigue	0%
O=c1ccn([C@@H]2O[C@H](CO)[C@@H](O)[C@H]2O)c(=S)[nH]1		monkey cells			CC50	283 µM
O=S(=O)(Nc1ccccc1)c1ccc(NC(=S)Nc2ccccc2)cc1		mouse, male, blood	oral, 5 mg/kg daily, 14 days		mean corpuscular volume	47.8 fL
N.N.[Cl][Pt][Cl]		nude mice, serum	dose not given, 10 days		AST	208 ± 60 U/L
CC[C@H](C)CCCCC(=O)N[C@@H](CCN)C(=O)N[C@H](C(=O)N[C@@H](CCN)C(=O)N[C@H]1CCNC(=O)[C@H]([C@@H](C)O)NC(=O)[C@H](CCN)NC(=O)[C@H](CCN)NC(=O)[C@H](CC(C)C)NC(=O)[C@@H](Cc2ccccc2)NC(=O)[C@H](CCN)NC1=O)[C@@H](C)O		human, critically ill, no AKI, plasma	intravenous, dose not given, mean		dose-normalised fAUC(0-24) steady state	0.58 mg·h/L per mg
CC[C@H](C)[C@H](NC(=O)[C@H](CCCCN)NC(=O)[C@H](CCC(=O)O)NC(=O)[C@H](CCCCN)NC(=O)[C@H](CO)NC(=O)[C@H](CCCCN)NC(=O)[C@H](CCCNC(=N)N)NC(=O)[C@H](Cc1ccccc1)NC(=O)[C@H](Cc1ccccc1)NC(=O)[C@H](CC(=O)O)NC(=O)CNC(=O)[C@H](CC(C)C)NC(=O)[C@@H](N)CC(C)C)C(=O)NCC(=O)N[C@@H](CCCCN)C(=O)N[C@@H](CCC(=O)O)C(=O)N[C@@H](Cc1ccccc1)C(=O)N[C@@H](CCCCN)C(=O)N[C@@H](CCCNC(=N)N)C(=O)N[C@H](C(=O)N[C@H](C(=O)N[C@@H](CCC(N)=O)C(=O)N[C@@H](CCCNC(=N)N)C(=O)N[C@H](C(=O)N[C@@H](CCCCN)C(=O)N[C@@H](CC(=O)O)C(=O)N[C@@H](Cc1ccccc1)C(=O)N[C@@H](CC(C)C)C(=O)N[C@@H](CCCNC(=N)N)C(=O)N[C@@H](CC(N)=O)C(=O)N[C@@H](CC(C)C)C(=O)N[C@H](C(=O)N1CCC[C@H]1C(=O)N[C@@H](CCCNC(=N)N)C(=O)N[C@H](C(=O)N[C@@H](CCC(=O)O)C(=O)N[C@@H](CO)C(=O)O)[C@@H](C)O)C(C)C)[C@@H](C)CC)C(C)C)[C@@H](C)CC	LC-MS	50% pooled human serum	40 µM, 300 min, pH 7.5, 37 °C	baseline: 0 h	remaining intact peptide	0%
C=CC(=O)N1CC[C@H](n2nc(C#Cc3cc(OC)cc(OC)c3)c3c(N)ncnc32)C1		human patients	oral, dose not given, QD regimen, adverse drug reaction, with: sevelamer hydrochloride		hyperphosphatemia incidence, grade ≥3	0%
O=C1Nc2cc3[nH]nc(-c4ccncc4)c3cc2CN1Cc1ccccc1	measured: Diarrhea	patients with advanced solid tumours	intravenous, dose not given		patients with TEAE	22%

Repeated from above:
Structure (SMILES)	test	test system	conditions	how to read	measurement	result
CCCCCCCC(=O)N[C@@H](CCCCN)C(=O)N[C@@H](CCCCN)C(=O)N[C@@H](C)C(=O)N[C@@H](CC(C)C)C(=O)N[C@@H](CCCCN)C(=O)N[C@@H](CC(C)C)C(=O)N[C@@H](C)C(=O)N[C@@H](CCCCN)C(=O)N[C@@H](CCCCN)C(=O)N1CCC[C@H]1C(=O)N[C@@H](CC(C)C)C(=O)N[C@@H](CCCCN)C(=O)N[C@@H](CC(C)C)C(=O)N[C@@H](CC(C)C)C(=O)N[C@@H](CCCCN)C(N)=O		mouse, whole blood	intravenous bolus, 1 mg/kg		AUC(0-last)	75 ± 15 ng·h/mL
C[C@]1(CO)Cc2ncn(-c3ccc(C#N)c(Cl)c3)c2C(=O)O1		human, Chinese, plasma	60 mg single dose, median		tmax	1 h
